# Published values gathered from unrelated publications.
# Each numbered part is a random draw from the data of one study; scales do not carry over between parts.

# Study 1 — technique: RNA Bind-n-Seq; form: RNA; medium: in vitro; tested at: 20 nM; setting: 6-mer, flanks averaged, single round; with: 150 mM LiCl; baseline: input library; direction: higher = stronger binding
# Target: TAR DNA-binding protein 43, full length, His tag (TARDBP, Homo sapiens, UniProt Q13148, residues 1-414)
Sequence,6-mer enrichment (R)
AGGUCG,1
CCGAAU,0.879
UUCAUG,0.944
UGUUCC,1.04
AUUAUU,1.09
UUGACU,0.944
GGAGGU,1.23
ACGUGG,1.02
CGCACC,0.95
ACUCUC,0.888
UCCUCG,0.854
ACGAGC,0.852
CGUGUG,1.56
UGUGCG,1.49
GGCGAA,0.973
AGCUCU,0.855

# Study 2 — technique: RNA Bind-n-Seq; form: RNA; medium: in vitro; tested at: 1 µM; setting: whole 134-nt RNA, ends assumed; with: 150 mM KCl; baseline: input library; direction: higher = stronger binding
# Target: Ras GTPase-activating protein-binding protein 1, RRM domain (G3BP1, Homo sapiens, UniProt Q13283)
# Sequence of UniProt Q13283 (whole entry, looked up): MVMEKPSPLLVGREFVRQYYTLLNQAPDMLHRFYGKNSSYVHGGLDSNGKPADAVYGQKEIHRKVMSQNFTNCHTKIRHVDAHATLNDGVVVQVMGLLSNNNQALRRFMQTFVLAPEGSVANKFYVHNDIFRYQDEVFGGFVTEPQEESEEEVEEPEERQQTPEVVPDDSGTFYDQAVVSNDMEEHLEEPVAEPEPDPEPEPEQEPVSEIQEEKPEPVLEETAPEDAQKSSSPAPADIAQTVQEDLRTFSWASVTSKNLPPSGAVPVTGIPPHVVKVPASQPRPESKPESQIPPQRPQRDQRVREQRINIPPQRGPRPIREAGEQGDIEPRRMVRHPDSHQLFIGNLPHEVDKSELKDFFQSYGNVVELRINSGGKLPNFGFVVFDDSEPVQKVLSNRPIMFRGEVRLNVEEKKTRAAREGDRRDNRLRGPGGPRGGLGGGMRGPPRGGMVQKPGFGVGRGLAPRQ
# Shared flanks, not repeated: GGGAGUUCUACAGUCCGACGAUC … UGGAAUUCUCGGGUGUCAAGG
Sequence,log2 enrichment
UCCUGUGCUACACAUCGUAUGUACCGAAUCGGUUUUUUUGGUUUUUUUGGAAAAAAAGGAAAGUAUUAUGUUACGCCGUUCGGAUCUGCA,-0.207
UCCUGUGCUACACAUCGUAUGUACCGAAUCGGGUUUUUUUGGGUUUUUGGGAAAAAGGGAAAGUAUUAUGUUACGCCGUUCGGAUCUGCA,-0.0331
ACCAUGCAGGUGGGCAUCUUUGGGAAGUGGGGCAAUGGGGGGAUAGGGAGGGGGGUAACACUUUGGGAACAGGUGGUCCCAGGUCGUUUC,-0.404
UGGGAGGUGGAUUUGGUUUAUUUUUUUAGCUCAUUUCCAGGGGUGGGAAUUUUUUUUUAAUAUGUGUCAUGAAUAAAGUUGUUUUUGAAA,1.68
UGGCCCUGGUGGCAUGCGGGGAGGAAGAGGUGGCCUCAUGGAUCGUGGUGGUCCCGGUGGAAUGUUCAGAGGUGGCCGUGUUGGAGACAG,1.67
UGAAAAGAACUGCUCUCCAUGGAGAGAGUAACUCUGUCCUUAUUAUCGGACCCCGAGGAUCAGGAAAAACUAUGGUAAAAGCUGUUGAUU,-0.106
UUGCAGAUGAGCUUAUGGGGGGCAAUCUUAAAAAGUCCACAGCAGAUGCAUCCGGCUCGAGGGGCCAUCAGCUUUGAAUAAAUGCUUGUU,-0.157
UGUUCUGCAGAGGGGCGGUGUCAUUACUGAUGAAGAGGAAACCUCUAAGAAGAUAGCUGACCAGUUGGACAACAUUGUGGACAUGCGCGA,-0.186
GCAGGAAGUAAAAACAAAUGGAAAUGCUUCGGAUAGUGGCAGGGGUGGGGGUUAAAAAGGAAAGGGUGGGAUGGGAGUGGGUAAAGAGUU,1.1
CUCAAGUCCUGUGCUACACAUCGUAUGUACCGAAUCGGGGUGGGGUGGGGUGGAAAGUAUUAUGUUACGCCGUUCGGAUCUGCACUUCCA,0.226
CAAGUCCUGUGCUACACAUCGUAUGUACCGAAUCAAAUUUAAACCCAAACCCAAAAAAGUAUUAUGUUACGCCGUUCGGAUCUGCACUUC,-0.0722
CCUCAAGUCCUGUGCUACACAUCGUAUGUACCGAAUCGGGGUGGGUGGGUGGAAAGUAUUAUGUUACGCCGUUCGGAUCUGCACUUCCAG,0.409
GUCCUGUGCUACACAUCGUAUGUACCGAAUCGGGGCCCCGGGCCCCGGGGCCCCGGGGAAAGUAUUAUGUUACGCCGUUCGGAUCUGCAC,-1.66
CCUCAAGUCCUGUGCUACACAUCGUAUGUACCGAAUCGGUGGUUUGGAAAGGAAAGUAUUAUGUUACGCCGUUCGGAUCUGCACUUCCAG,-0.172

# Study 3 — technique: aptamer microarray, sandwich; form: DNA with 2'F-ANA; medium: in vitro; tested at: 200 nM; with: Cy3 exosite-II aptamer, 400 nM; direction: higher = stronger binding; sequence: GGTTGGTGTGGTTGG
# Target: Prothrombin, mature alpha-thrombin (F2, Homo sapiens, UniProt P00734)
# Setting: whole 15-mer aptamer, many near background
Modification,mean fluorescence intensity [a.u.]
2'F-ANA at 2 4 8 11 15,305
2'F-ANA at 1 3 4 5 7 8 10 12 15,92
2'F-ANA at 1 2 5 6 8 9 11 12 14,51
2'F-ANA at 1 3 4 5 7 8 10 11 15,53.8
2'F-ANA at 1 2 5 6 7 10 11 12 14 15,49.6
2'F-ANA at 3 6 9 10 12 13 14 15,351
2'F-ANA at 3 6 7 8 11 12,1160
2'F-ANA at 4 7 11 12 14 15,112
2'F-ANA at 1 6 8 10 11 14 15,47.7
2'F-ANA at 1 5 10 12 15,50.9
2'F-ANA at 9 10 11 13 14,105
2'F-ANA at 1 2 3 5 8 11 12 13 15,94.6
2'F-ANA at 1 4 6 7 8 9 10 12 13 14,46.2
2'F-ANA at 2 5 11 13 15,55
2'F-ANA at 1 2 6 7 8 9 10 11 13,52.4
2'F-ANA at 3 5 8 9 10 11 12 13 14 15,51.5
2'F-ANA at 1 4 5 7 10 11 13 14,54.3
2'F-ANA at 3 5 7 9 10,59.2
2'F-ANA at 2 3 4 8 10 11 12 13 14,161
2'F-ANA at 1 2 3 5 6 8 9 10 11 13 14,53.9
2'F-ANA at 1 2 3 5 11 13 14,47.9
2'F-ANA at 1 2 4 9 12 14 15,109
2'F-ANA at 4 6 7 8 9 11 12,463

# Study 4 — technique: protein binding microarray; form: double-stranded DNA, one strand shown; medium: in vitro; tested at: not given; baseline: not given; direction: higher = stronger binding
# Target: Histone acetyltransferase KAT6A, winged helix 2, GST fusion (KAT6A, Homo sapiens, UniProt Q92794, residues 85-181)
# Setting: 8-mer, flanks averaged, mean of 2 arrays, mostly near background
# Construct (chain): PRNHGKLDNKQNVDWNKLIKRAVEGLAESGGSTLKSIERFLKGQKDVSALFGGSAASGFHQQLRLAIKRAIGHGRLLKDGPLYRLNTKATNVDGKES
Sequence,E-score
CGCTGTTC,0.113
CAACTCTA,-0.127
CACGCGAA,-0.0197
CAATGCCA,-0.00455
GGATAGGA,-0.0833
CGGTTCAA,-0.0182
ATATTCCG,0.188
CTGTGACC,-0.0533
CGATTACC,-0.05
AGCTTCTG,0.0504
GGAGTCAA,-0.0281
ACTTCGTC,0.172
CATGAGGG,-0.0141
CTTTCAGC,0.0138
AGACCTAG,-0.0303
GTGGCTCA,-0.184
CGATTAAG,-0.0406
TCTTGTCA,-0.0166
CCTGAGTA,0.0789
ATGAAGAC,0.226
CGAAGGAA,0.116
TAGTCGCA,-0.0314
AGGGGTAG,-0.133
ATAAGGTC,-0.0411
AGACTATG,-0.0986

# Study 5 — technique: RNA Bind-n-Seq; form: RNA; medium: in vitro; tested at: 365 nM; baseline: no-protein control; direction: higher = stronger binding
# Target: RNA binding protein fox-1 homolog 2, RRM domain, GST-SBP tag (RBFOX2, Homo sapiens, UniProt O43251-10, residues 100-194)
# Setting: natural RNA segment, single round, ends assumed
# Shared flanks, not repeated: GGGAGUUCUACAGUCCGACGAUC … UGGAAUUCUCGGGUGCCAA
# Construct (chain): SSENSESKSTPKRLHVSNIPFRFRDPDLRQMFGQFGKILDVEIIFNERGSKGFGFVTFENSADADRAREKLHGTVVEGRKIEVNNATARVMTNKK
Sequence,RBNS enrichment (R)
GGCUUCCUCUAUGGAUGCUUCCAGCGGACAACCACCAUCUCUGUGUCUCUCUCAUUCUCUCUUCACCUGCCAUAGCAAAGAAACAUCCCAGAAUCGACCCUUCUCCCAUU,0.736
UAAUCCUUUCUGCCGACCCCUAGUUCCCUCUGCUCAGCCAAGCUUGUUAUCAGCUUUCAGGGCCAUGUUCACAUUAGAAUAAAAGGUAGUAAUUAGAACACUCUGGCUCC,0.322
UUCCUCUCACUUUCACACCUUUAAUUUAAAUCUAUUUAAGAGAACCAUGGUUCUGAUUGUUGUGUAUAUUUUUCUAAAGGCUGAAUAAAGCUAUCUAUGAAUGUGAACAA,1.46
UUAAGUAAAUUUUUCGUUUUACUUUUUCCACAGCAGCUAACGUGUAGGGAGACAUUAAACCCACACCAAAUCAUGAGGGGCUGAGGACCCCCAAUCUUCUUCUCUAGGUC,0.872
GGGCUUGGGGAAAGAAGGCUGCAGGCAGCCUGCCGUCUAGGCAUCACUUUAUUUUUUAUCCUCCAGACUUCUGCUCCUCCCACAGCUGAUGACUUGCACUUUUAAAGUGG,0.419
CCGACUAUGCCUUCUUGGGCACUGCACUGCUGCCUCACCAGUGGCAGCACAAGGUGCACUUCAUGGUCUCACUGGACCAUUCCAUGUGGUUCCACGCCCCCUUCCGAGCU,0.217
UAAAUGCUAAAUUUUUGUCUUUUGCCUUUUUAAAGGAAUUGUUACCAUUGGAAUUGAGGGUAUGUACAGAGAAGUUGGUGUCAAUGCCAUUUAAUAAGUCAUAUUUUUUC,0.59
UUGUCUUUAUGCUAUGUACAGAGAAAUGUGAUAAUUUUUUAUAAUAAAUAUUUUUUAUGAUGAUAAAGACAUUGUGUUUUAAAGUUCUUUUCUCAAUUUACCUCAAGGUA,1.11
AAUUUUUAUAUAGCUAAUGUAGGAUAAAGUAGAGUGCAUUAAGACAAUAUUGUAACCCCACUCUAGGCACUUGCCUUUAAACUGUCUCAGCCCUUCAGAAGGGCUCAACU,0.376
AAACAGGCAGCUCAUAAGAGCCACAGGUCUUUAUGUUGAGUCGCGCACCGAAAAACUAAAAAUAAUGGGCGCUUUGGAGAAGAGUGUGGAGUCAUUCUCAUUGAAUUAUA,0.532
UUUUGCUAAUAGUUUGAGCACAAAUUGAAGCCCAGAAAUACUGAAAGCUUAUUAUUUUAUAUCCUUUAGGUAAUAUAUGUAUAUGCUAUAUACAUAUAAUUAUAUACAUA,0.91
UGGGGUCAUGGUUCAGCAGAGGUUACAUAGGAGCAAAUGGUUCUCAAUUUUCCAGUUUGAUUGAAGUGCAGAGAAAAAUCCCUUAGAUUGCAAAAUAAAAUAGUUGAACU,0.836

# Repeated from above (study 3):
Modification,mean fluorescence intensity [a.u.]
2'F-ANA at 4 7 11 12 14 15,112
2'F-ANA at 1 6 8 10 11 14 15,47.7
2'F-ANA at 1 5 10 12 15,50.9
2'F-ANA at 9 10 11 13 14,105
2'F-ANA at 1 2 3 5 8 11 12 13 15,94.6
2'F-ANA at 1 4 6 7 8 9 10 12 13 14,46.2
2'F-ANA at 2 5 11 13 15,55
2'F-ANA at 1 2 6 7 8 9 10 11 13,52.4
